Values quoted from earlier work that unrelated publications cite.
Lines come from different studies, so protocols differ. ± marks the error that the study gave. In brackets after ≈: the same amount, converted by molar mass.
UniProt P20789, sequence (whole entry, looked up): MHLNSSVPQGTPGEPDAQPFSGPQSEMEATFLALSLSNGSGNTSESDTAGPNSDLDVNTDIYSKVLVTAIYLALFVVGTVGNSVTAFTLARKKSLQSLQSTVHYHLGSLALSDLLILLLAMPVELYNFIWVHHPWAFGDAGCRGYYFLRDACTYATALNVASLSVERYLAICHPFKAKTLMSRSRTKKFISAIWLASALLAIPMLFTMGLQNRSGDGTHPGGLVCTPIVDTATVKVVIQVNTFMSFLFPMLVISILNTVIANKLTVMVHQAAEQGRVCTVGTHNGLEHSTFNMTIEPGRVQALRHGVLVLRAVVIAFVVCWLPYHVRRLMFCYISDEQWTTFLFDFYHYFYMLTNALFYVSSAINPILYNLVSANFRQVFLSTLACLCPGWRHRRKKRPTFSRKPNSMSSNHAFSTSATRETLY
UniProt Q9NRG4, sequence (whole entry, looked up): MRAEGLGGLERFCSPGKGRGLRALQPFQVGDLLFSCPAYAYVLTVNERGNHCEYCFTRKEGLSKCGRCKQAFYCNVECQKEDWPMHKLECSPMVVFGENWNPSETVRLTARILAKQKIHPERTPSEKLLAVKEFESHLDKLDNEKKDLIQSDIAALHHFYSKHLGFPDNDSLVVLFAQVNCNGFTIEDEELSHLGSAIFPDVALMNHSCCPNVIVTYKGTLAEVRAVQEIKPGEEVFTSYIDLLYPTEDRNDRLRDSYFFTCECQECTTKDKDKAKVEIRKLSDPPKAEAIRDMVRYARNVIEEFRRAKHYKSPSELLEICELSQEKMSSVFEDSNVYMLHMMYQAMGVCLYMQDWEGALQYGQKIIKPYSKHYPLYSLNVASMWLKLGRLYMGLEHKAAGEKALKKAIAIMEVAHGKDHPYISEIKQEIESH
UniProt Q96D53, sequence (whole entry, looked up): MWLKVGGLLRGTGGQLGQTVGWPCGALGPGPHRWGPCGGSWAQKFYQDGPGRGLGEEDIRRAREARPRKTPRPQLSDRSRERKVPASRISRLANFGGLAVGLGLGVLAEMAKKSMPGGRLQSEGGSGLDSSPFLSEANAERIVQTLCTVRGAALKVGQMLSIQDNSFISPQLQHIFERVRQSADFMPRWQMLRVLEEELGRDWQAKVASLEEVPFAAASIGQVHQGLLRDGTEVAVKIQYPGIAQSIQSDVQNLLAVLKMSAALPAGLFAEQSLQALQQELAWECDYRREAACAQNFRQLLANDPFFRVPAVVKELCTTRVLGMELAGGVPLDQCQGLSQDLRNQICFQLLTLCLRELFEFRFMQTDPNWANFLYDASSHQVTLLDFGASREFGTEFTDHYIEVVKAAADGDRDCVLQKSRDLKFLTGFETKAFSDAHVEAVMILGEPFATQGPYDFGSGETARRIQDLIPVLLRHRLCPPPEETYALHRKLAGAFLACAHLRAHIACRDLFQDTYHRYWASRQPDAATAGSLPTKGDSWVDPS
UniProt Q92630, sequence (whole entry, looked up): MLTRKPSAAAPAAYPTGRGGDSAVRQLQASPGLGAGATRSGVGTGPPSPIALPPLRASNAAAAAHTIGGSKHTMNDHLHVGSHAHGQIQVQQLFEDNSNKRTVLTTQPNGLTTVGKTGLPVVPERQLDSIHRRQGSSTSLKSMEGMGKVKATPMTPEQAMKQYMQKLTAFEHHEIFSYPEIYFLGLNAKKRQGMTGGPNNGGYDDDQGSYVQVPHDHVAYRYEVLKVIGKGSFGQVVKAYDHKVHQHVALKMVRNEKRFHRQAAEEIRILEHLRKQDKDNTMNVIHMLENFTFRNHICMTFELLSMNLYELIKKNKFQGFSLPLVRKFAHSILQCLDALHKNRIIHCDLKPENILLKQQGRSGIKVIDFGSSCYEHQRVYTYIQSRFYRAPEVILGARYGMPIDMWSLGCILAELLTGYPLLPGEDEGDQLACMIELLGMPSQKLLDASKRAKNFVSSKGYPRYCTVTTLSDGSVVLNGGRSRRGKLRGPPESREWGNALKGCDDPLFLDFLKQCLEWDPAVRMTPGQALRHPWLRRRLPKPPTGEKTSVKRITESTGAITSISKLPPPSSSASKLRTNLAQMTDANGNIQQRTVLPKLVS
UniProt Q99814, sequence (whole entry, looked up): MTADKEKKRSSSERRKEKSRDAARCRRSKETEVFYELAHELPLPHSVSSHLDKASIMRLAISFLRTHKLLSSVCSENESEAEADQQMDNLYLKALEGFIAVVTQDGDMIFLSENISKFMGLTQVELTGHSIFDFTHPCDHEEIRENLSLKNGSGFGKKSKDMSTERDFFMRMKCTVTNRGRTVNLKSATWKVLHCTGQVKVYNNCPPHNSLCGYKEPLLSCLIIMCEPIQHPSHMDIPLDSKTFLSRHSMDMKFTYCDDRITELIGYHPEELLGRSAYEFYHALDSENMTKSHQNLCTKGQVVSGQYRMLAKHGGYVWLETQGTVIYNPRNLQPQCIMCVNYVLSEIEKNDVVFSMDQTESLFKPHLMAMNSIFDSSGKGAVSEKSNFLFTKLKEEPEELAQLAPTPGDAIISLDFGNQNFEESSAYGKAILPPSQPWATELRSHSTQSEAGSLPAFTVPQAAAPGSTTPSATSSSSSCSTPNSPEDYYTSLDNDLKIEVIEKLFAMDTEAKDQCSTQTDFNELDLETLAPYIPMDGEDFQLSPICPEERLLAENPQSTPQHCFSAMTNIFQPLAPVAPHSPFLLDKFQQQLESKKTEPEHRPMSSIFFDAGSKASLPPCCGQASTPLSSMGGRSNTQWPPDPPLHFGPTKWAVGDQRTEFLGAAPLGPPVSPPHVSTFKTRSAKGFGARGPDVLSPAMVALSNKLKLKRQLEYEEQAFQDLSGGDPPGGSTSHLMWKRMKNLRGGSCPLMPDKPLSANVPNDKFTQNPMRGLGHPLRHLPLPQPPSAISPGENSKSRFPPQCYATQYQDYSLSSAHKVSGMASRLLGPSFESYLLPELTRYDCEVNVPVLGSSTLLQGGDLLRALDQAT
UniProt Q9UNU6, sequence (whole entry, looked up): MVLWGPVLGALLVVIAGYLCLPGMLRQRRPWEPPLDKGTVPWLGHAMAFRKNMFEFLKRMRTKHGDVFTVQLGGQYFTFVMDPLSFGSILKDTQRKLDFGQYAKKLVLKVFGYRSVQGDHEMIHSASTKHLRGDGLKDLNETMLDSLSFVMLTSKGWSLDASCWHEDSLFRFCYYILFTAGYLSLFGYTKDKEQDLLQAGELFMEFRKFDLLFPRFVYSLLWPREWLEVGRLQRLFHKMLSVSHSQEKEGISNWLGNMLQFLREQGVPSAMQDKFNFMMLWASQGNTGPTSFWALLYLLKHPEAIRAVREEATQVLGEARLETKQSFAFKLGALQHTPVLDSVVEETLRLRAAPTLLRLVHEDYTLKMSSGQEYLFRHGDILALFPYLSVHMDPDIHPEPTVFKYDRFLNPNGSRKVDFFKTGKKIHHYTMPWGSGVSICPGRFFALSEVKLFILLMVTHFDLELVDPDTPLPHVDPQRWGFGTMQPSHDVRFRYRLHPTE
UniProt O00750, sequence (whole entry, looked up): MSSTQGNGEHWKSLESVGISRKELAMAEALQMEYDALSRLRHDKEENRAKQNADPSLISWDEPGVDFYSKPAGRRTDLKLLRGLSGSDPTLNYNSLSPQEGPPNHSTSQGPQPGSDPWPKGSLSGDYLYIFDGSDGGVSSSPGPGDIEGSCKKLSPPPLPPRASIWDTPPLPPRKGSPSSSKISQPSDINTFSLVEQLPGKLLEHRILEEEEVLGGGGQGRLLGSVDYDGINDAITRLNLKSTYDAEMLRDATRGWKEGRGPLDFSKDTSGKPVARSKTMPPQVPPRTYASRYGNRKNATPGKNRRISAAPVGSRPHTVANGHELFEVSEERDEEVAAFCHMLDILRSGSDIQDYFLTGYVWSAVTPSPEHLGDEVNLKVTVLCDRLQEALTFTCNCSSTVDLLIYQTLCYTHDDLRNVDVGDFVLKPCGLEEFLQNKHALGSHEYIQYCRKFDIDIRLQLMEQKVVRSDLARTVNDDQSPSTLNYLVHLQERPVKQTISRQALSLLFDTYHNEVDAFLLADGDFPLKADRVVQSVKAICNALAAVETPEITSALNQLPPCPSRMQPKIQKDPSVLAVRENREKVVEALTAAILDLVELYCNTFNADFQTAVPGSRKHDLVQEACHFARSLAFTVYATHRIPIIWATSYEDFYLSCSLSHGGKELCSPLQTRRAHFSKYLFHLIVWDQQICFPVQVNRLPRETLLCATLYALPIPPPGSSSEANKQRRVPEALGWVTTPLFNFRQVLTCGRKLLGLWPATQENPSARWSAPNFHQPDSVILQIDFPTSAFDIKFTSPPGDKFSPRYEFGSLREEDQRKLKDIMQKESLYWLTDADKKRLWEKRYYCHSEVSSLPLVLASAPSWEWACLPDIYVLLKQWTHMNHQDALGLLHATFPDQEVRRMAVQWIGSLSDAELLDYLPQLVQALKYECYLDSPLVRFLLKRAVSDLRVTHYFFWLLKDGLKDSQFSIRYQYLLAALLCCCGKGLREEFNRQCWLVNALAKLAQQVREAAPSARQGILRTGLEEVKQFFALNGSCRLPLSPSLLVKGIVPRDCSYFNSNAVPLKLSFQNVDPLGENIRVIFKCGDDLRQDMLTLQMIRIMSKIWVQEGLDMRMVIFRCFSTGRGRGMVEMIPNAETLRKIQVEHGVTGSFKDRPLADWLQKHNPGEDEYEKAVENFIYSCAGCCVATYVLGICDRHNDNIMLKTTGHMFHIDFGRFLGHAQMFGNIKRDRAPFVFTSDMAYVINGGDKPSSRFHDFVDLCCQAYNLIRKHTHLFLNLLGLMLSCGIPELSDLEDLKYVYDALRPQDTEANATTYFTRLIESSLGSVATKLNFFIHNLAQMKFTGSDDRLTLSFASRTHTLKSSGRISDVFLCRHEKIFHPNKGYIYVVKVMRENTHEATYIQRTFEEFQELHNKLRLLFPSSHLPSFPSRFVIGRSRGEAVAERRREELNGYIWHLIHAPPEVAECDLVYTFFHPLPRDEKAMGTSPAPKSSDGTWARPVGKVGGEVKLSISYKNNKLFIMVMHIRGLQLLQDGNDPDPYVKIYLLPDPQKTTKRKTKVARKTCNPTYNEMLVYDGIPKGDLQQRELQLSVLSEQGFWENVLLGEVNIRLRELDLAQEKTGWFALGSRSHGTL

`Nc1cc(C(F)(F)F)c(-c2nc(N3CCOCC3)nc(N3CCOCC3)n2)cn1` gave a remaining activity of 99% (COQ8B (Homo sapiens, UniProt Q96D53); enzyme activity; 10 µM; reference: untreated).
`CC(C)CCC[C@@H](C)[C@H]1CC[C@H]2[C@@H]3[C@H](O)CC4=CC(=O)CC[C@]4(C)[C@H]3CC[C@]12C` gave a Km of 0.5 µM (7-alpha-hydroxycholest-4-en-3-one 12-alpha-hydroxylase (Homo sapiens, UniProt Q9UNU6); substrate).
The Km of `Nc1nc(=O)n([C@H]2C[C@H](O)[C@@H](CO)O2)cc1I` is reported as 10 µM (cytidine deaminase (human); substrate; concentration not given).
`Cc1c(CN2CCN(C(=O)[C@H](C)O)CC2)sc2c(N3CCOCC3)nc(-c3cnc(N)nc3)nc12` gave a remaining binding of 31% (PIK3C2B (Homo sapiens, UniProt O00750); KinomeScan competition binding; 10 µM).
With `CCC(=O)O[C@]1(C(=O)SCF)[C@H](C)C[C@H]2[C@@H]3C[C@H](F)C4=CC(=O)C=C[C@]4(C)[C@@]3(F)[C@@H](O)C[C@@]21C` the receptor occupancy was 84.5% (Nr3c1 (Rattus norvegicus, UniProt P06536); rat, spleen; intravenous, 90 nmol/kg, 0.4667 (unit not given)).
With `N[C@@H](CC(=O)c1ccccc1)C(=O)O` the relative kcat/Km was roughly 10% (kynureninase (Pseudomonas fluorescens); substrate; reference: L-kynurenine).
`Cc1cc(NC(=O)c2cccc(NC(=O)/C=C/CN(C)C)c2)ccc1Nc1nccc(-c2cccnc2)n1` gave a remaining activity of 20% (DYRK2 (Homo sapiens, UniProt Q92630); enzyme activity, inhibitor; 1 µM; reference: vehicle).
`CC(C)=CCCC(C)=CC=O` (mixture of isomers) has a conversion of 15 to 99% (12-oxophytodienoate reductase OPR1 (isoform 1); ene-reductase biotransformation, substrate).
The MIC of `CNC(C)C1CCC(N)C(OC2C(N)CC(N)C(OC3OCC(C)(O)C(NC)C3O)C2O)O1` (stereo not drawn) is reported as 2 µg/mL (≈ 4.19 µM) (Escherichia coli; clinical isolate RKI-No_593/16).
For `Cc1cc(O)c2c(c1)C(=O)c1cc(O)cc(O)c1C2=O`, the activation was 75.6 ± 12.9% (DRD3 (Homo sapiens, UniProt P35462); agonist; 50 µM).
For `COc1c(N2C[C@@H]3CCCN[C@@H]3C2)c(F)cc2c(=O)c(C(=O)O)cn(C3CC3)c12`, the Km was 3400 µM (UGT1A1 (Homo sapiens, UniProt P22309); substrate).
With `O=[N+]([O-])c1cc(C(F)(F)F)ccc1NCc1ccsc1` the binding enthalpy was -9.5 kcal/mol (Endothelial PAS domain-containing protein 1, PAS-B domain (EPAS1, Homo sapiens, UniProt Q99814); isothermal titration calorimetry; concentration not given, <0.1% DMSO).
`CCN(c1cc(-c2ccc(CN3CCOCC3)cc2)cc(C(=O)NCc2c(C)cc(C)[nH]c2=O)c1C)C1CCOCC1` gave an inhibition of 1 ± 2% (SMYD2 (Homo sapiens, UniProt Q9NRG4); enzyme activity, inhibitor; 1 µM).
The MIC of `CC1(C)S[C@@H]2[C@H](NC(=O)[C@H](N)c3ccccc3)C(=O)N2[C@H]1C(=O)O` is reported as greater than 16 µg/mL (Escherichia coli; clinical isolate RKI-No_590/16).
For `COc1cccc(OC)c1-c1cc(C(=O)NC2(C(=O)O)CCCCC2)nn1-c1cccc2ccccc12`, the Ke was 230 ± 79 nM (Ntsr1 (Rattus norvegicus, UniProt P20789); antagonist, FLIPR calcium).

A few entries again:
`CC(C)CCC[C@@H](C)[C@H]1CC[C@H]2[C@@H]3[C@H](O)CC4=CC(=O)CC[C@]4(C)[C@H]3CC[C@]12C` gave a Km of 0.5 µM (7-alpha-hydroxycholest-4-en-3-one 12-alpha-hydroxylase (Homo sapiens, UniProt Q9UNU6); substrate).
For `COc1c(N2C[C@@H]3CCCN[C@@H]3C2)c(F)cc2c(=O)c(C(=O)O)cn(C3CC3)c12`, the Km was 3400 µM (UGT1A1 (Homo sapiens, UniProt P22309); substrate).
